Published values collected from several papers.
A part holds a random share of what one study measured. Changes are numbered by the printed parent chain.
Chain of UniProt O95382 (whole entry, looked up): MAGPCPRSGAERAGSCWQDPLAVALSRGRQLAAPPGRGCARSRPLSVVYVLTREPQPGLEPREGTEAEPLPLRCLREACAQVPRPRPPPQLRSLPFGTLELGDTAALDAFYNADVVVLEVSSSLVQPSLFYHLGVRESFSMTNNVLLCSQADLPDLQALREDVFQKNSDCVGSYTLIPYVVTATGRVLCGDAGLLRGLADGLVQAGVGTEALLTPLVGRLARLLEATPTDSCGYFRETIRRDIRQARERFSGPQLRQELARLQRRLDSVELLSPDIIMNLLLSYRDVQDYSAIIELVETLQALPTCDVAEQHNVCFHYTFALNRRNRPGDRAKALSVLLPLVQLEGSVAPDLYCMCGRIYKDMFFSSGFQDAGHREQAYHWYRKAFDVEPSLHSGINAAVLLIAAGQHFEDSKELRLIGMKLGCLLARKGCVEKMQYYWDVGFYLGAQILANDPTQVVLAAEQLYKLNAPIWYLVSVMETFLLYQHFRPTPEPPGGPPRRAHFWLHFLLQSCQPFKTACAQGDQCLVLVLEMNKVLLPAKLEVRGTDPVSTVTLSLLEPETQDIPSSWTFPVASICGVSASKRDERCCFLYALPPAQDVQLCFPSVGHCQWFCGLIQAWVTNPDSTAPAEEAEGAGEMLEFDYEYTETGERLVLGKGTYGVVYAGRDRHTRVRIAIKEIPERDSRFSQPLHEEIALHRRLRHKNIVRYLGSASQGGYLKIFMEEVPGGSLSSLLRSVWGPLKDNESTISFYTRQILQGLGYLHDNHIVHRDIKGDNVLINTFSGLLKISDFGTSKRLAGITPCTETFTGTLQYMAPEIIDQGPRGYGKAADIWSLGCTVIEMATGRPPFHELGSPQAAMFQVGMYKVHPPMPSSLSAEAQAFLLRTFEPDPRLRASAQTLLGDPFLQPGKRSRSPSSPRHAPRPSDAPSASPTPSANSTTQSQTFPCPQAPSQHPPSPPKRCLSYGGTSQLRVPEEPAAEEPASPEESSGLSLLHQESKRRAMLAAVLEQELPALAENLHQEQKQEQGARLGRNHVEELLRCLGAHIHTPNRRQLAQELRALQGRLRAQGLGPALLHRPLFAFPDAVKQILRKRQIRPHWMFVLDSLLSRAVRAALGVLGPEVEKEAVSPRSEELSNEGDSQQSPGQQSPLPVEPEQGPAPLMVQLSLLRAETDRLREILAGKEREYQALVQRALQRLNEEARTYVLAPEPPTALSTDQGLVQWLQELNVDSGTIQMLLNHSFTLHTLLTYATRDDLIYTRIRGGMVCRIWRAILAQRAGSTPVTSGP
Chain of UniProt Q9NRP7 (whole entry, looked up): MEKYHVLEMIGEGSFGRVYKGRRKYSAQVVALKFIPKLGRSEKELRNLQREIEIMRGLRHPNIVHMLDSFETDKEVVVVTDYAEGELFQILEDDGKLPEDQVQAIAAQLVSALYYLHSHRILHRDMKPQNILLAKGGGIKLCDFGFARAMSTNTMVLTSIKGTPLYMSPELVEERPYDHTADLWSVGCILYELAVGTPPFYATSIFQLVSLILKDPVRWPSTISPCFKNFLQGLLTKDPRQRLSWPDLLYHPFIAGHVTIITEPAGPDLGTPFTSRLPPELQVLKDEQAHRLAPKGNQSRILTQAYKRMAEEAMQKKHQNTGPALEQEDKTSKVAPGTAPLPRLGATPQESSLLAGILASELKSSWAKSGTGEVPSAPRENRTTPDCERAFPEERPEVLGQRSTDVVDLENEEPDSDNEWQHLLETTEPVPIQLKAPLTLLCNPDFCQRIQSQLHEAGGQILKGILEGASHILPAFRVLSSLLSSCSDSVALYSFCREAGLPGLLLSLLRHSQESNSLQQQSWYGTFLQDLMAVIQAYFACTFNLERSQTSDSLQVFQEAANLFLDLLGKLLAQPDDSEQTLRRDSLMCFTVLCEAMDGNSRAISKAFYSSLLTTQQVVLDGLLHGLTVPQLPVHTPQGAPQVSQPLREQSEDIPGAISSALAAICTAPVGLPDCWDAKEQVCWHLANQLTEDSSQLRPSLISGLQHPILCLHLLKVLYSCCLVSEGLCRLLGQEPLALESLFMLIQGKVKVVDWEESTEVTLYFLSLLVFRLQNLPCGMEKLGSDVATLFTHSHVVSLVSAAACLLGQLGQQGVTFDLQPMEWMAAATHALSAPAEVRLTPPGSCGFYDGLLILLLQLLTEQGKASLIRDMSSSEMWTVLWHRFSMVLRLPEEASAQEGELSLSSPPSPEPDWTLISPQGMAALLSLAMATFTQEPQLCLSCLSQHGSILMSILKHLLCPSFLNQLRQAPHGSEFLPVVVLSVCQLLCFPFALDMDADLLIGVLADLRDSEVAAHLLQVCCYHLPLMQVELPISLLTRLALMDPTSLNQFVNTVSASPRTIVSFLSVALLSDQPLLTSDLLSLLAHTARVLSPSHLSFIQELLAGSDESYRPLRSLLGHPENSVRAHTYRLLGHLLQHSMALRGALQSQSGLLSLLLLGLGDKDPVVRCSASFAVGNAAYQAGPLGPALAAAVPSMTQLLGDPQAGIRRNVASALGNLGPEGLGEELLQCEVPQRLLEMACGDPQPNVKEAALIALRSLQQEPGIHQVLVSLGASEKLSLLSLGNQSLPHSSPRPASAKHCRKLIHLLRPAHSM
Chain of UniProt Q9H0K1 (whole entry, looked up): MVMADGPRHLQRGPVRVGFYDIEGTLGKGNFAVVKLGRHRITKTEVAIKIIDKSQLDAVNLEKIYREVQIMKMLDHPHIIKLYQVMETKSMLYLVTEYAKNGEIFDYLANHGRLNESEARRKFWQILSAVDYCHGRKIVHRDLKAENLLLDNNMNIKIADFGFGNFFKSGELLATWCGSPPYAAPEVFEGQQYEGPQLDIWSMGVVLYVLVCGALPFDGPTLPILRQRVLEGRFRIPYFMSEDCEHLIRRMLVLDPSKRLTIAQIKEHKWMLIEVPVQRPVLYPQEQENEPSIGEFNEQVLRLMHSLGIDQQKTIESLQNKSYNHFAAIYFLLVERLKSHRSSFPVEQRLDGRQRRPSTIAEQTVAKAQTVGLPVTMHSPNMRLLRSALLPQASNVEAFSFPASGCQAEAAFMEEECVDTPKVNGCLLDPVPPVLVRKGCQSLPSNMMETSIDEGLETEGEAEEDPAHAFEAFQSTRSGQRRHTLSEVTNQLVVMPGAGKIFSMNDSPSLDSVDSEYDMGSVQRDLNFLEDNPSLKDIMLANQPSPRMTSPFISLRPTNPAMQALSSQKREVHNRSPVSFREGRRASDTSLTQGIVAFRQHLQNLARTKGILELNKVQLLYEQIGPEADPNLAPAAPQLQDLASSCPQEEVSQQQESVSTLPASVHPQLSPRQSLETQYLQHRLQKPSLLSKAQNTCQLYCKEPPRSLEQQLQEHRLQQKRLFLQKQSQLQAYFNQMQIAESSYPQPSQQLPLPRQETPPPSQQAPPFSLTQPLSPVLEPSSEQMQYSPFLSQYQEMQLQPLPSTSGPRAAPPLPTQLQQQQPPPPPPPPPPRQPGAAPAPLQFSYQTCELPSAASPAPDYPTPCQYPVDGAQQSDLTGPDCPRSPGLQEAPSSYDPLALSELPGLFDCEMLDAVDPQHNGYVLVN
Chain of UniProt Q86YV6 (whole entry, looked up): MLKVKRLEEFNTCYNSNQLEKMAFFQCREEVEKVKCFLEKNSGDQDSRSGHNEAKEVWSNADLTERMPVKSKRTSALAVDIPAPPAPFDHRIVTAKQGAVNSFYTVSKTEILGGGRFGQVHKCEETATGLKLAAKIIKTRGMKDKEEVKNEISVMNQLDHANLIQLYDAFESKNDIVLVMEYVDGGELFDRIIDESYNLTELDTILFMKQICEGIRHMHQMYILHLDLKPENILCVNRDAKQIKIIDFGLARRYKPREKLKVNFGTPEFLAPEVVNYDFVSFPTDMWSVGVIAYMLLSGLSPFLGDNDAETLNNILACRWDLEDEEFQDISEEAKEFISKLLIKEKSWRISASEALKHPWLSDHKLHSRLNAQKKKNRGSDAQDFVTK
Chain of UniProt P36896 (whole entry, looked up): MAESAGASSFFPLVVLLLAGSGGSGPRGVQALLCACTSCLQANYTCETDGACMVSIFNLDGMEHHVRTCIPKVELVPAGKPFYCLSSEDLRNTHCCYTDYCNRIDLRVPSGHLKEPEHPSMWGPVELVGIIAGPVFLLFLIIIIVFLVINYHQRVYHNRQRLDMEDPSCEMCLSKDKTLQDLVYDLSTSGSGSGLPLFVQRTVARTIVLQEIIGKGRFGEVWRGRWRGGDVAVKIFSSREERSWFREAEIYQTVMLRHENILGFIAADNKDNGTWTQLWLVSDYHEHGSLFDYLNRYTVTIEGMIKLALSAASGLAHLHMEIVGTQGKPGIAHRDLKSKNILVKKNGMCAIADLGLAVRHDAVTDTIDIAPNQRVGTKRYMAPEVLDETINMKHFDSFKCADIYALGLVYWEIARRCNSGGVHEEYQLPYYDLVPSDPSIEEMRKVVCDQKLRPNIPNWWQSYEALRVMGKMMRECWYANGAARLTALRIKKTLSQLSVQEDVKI
Chain of UniProt Q8N752 (whole entry, looked up): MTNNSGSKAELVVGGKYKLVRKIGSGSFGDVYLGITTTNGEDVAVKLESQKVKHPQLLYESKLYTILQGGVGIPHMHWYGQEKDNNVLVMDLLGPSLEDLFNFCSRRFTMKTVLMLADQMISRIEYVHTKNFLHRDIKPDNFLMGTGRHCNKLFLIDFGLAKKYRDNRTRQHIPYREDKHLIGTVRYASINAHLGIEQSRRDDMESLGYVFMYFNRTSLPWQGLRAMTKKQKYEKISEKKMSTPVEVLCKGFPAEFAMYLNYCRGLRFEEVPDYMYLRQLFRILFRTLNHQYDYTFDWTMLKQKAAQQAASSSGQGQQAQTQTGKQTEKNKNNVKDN

Series 1 — host: mouse; medium: microsomes or S9; tested at: 2 µM; time: 0.5 h
The remaining compound of OC1=C2C(=Nc3ccccc3NC2c2cccnc2)CC(c2ccccc2)C1 (stereo not shown) is reported as 44.9%.
The remaining compound of COC(=O)c1cc(O)c(=O)c2c(O)c(O)ccc2c1 is reported as over 99%.
COC(=O)CCCn1c(C(=O)c2ccccc2)c(C(C)C)c(=O)[nH]c1=O has a remaining compound of 20.5%.
COc1cc(C(=O)Nc2cnn(CCCC(=O)O)c2)cc(OC)c1OC gave a remaining compound of over 99.9%.
With CCn1c(C)c(C)c2c(-c3ccccc3)c(C(OC(C)(C)C)C(=O)O)c(C)nc21 (stereo not shown) the remaining compound was 91.7%.

Series 2 — effect on: cell-free assay; technique: competition with immobilised ligand; tested at: 1 µM
SMILES: Cn1nc(C(F)(F)F)cc1-c1cnc(N2CCc3cc(S(=O)(=O)Nc4c(F)cc(Cl)cc4F)cc(N4CCCC4=O)c32)nc1
Serine/threonine-protein kinase 36 (STK36, Homo sapiens, UniProt Q9NRP7) — remaining binding: 100%.
Receptor-type tyrosine-protein kinase FLT3 (FLT3, Homo sapiens, UniProt P36888, D835H) — remaining binding: 100%.
For Mitogen-activated protein kinase kinase kinase 6 (MAP3K6, Homo sapiens, UniProt O95382): remaining binding read 67%.
For Serine/threonine-protein kinase PLK1 (PLK1, Homo sapiens, UniProt P53350): remaining binding read 93%.
It gave 99% for remaining binding (Myosin light chain kinase family member 4 (MYLK4, Homo sapiens, UniProt Q86YV6)).
Activin receptor type-1B (ACVR1B, Homo sapiens, UniProt P36896) — remaining binding: 96%.
For Ephrin type-A receptor 8 (EPHA8, Homo sapiens, UniProt P29322): remaining binding read 65%.
For Casein kinase I isoform alpha-like (CSNK1A1L, Homo sapiens, UniProt Q8N752): remaining binding read 100%.
The remaining binding was 100% (Serine/threonine-protein kinase SIK2 (SIK2, Homo sapiens, UniProt Q9H0K1)).

Series 3 — target: CCNB3, cyclin fold, Cln2 fusion (human); technique: yeast growth competition, sequencing; medium: yeast; notes: weak parent motif; baseline: not given; reading: higher = stronger binding
Starting sequence: SGO1 docking peptide (human); PLAKRALKYTDEK
`PLAKAALKYTDEK [R5A]`: “normalised enrichment score” -0.149.
`PLAKRALKATDEK [Y9A]` — result for “normalised enrichment score”: -0.0471.
For `PLAKRALKYTDEA [K13A]`, “normalised enrichment score” read -0.267.
Under “normalised enrichment score”, `PLAARALKYTDEK [K4A]` is recorded as 0.0771.
Under “normalised enrichment score”, `PLAKRALKYTDAK [E12A]` is recorded as 0.204.
`PAAKRALKYTDEK [L2A]` — result for “normalised enrichment score”: 0.165.

Series 4 — technique: Spec-seq; molecule type: double-stranded DNA, one strand shown; medium: in vitro; tested at: not given; notes: whole probe, mean of replicates; baseline: not given; reading: lower = stronger binding; constant ends, left off below: GAGTCGTCTCGTCAGCAC … TCCGTAGAGCACTCAGGTC
Target: Transcription factor SOX-2, HMG box (Sox2, Mus musculus, UniProt P48432, residues 41-119)
Chain of UniProt P48432 (41-119, looked up): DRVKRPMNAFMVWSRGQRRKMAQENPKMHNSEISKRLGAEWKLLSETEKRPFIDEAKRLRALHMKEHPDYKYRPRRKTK
`GAGTGT` — result for “relative binding energy”: 0.526 ln ratio.
`CATAAA` — result for “relative binding energy”: -0.261 ln ratio.
Under “relative binding energy”, `ACTGGT` is recorded as -0.268 ln ratio.
`TATAGT`: “relative binding energy” -1.14 ln ratio.
`AATCGT`: “relative binding energy” -1.62 ln ratio.
`ACGGGT` — result for “relative binding energy”: 0.871 ln ratio.
Under “relative binding energy”, `CGAAGT` is recorded as 1.15 ln ratio.
`CCGGGT` — result for “relative binding energy”: 1.54 ln ratio.

For quick reference, copied from above (series 1):
COC(=O)CCCn1c(C(=O)c2ccccc2)c(C(C)C)c(=O)[nH]c1=O has a remaining compound of 20.5%.
The remaining compound of OC1=C2C(=Nc3ccccc3NC2c2cccnc2)CC(c2ccccc2)C1 (stereo not shown) is reported as 44.9%.
The remaining compound of COC(=O)c1cc(O)c(=O)c2c(O)c(O)ccc2c1 is reported as over 99%.
COc1cc(C(=O)Nc2cnn(CCCC(=O)O)c2)cc(OC)c1OC gave a remaining compound of over 99.9%.
